{"data": "Assay results from different studies", "MTNR1B": "Melatonin receptor type 1B (MTNR1B, Homo sapiens, UniProt P49286)", "note": "Each line is one published result; not all experiments were run side by side.", "chain of UniProt P49286 (whole entry, looked up)": "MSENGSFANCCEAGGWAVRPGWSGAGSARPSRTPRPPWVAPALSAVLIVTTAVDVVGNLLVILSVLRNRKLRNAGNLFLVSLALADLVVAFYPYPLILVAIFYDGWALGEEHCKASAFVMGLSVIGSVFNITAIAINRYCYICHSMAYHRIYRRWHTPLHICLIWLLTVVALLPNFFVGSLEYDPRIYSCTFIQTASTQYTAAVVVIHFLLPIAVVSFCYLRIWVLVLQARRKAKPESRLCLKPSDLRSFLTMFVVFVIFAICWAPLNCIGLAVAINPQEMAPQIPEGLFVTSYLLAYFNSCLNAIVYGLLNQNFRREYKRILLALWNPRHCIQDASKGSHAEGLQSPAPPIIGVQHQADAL", "chain of UniProt Q00535 (whole entry, looked up)": "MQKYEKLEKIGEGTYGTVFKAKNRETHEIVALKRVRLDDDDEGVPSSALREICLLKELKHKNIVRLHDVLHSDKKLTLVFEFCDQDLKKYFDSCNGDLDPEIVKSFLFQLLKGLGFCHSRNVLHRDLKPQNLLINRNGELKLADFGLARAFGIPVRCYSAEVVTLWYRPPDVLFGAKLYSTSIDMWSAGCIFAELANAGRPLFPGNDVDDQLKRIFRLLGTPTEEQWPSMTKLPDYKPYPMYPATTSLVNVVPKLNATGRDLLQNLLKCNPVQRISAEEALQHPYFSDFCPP", "chain of UniProt P19801 (whole entry, looked up)": "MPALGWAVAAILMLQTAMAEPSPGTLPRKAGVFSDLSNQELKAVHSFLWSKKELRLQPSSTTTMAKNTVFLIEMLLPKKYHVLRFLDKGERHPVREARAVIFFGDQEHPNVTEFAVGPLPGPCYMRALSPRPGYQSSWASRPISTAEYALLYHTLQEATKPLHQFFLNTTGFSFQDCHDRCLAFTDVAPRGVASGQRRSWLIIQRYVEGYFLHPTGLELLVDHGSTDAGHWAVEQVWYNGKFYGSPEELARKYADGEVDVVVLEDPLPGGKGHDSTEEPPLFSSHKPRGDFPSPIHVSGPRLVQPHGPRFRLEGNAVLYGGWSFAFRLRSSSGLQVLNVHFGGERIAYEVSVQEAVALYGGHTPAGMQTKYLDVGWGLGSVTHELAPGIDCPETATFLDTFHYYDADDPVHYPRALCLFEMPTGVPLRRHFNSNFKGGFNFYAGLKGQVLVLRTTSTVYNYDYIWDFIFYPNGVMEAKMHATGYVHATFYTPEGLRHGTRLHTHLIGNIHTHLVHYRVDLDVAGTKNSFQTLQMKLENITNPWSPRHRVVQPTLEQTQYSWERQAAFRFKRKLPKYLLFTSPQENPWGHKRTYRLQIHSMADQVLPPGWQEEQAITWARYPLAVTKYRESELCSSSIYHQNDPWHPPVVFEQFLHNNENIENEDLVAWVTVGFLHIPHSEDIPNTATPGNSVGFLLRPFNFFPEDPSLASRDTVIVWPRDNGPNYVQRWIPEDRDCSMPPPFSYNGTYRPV", "chain of UniProt P62344 (whole entry, looked up)": "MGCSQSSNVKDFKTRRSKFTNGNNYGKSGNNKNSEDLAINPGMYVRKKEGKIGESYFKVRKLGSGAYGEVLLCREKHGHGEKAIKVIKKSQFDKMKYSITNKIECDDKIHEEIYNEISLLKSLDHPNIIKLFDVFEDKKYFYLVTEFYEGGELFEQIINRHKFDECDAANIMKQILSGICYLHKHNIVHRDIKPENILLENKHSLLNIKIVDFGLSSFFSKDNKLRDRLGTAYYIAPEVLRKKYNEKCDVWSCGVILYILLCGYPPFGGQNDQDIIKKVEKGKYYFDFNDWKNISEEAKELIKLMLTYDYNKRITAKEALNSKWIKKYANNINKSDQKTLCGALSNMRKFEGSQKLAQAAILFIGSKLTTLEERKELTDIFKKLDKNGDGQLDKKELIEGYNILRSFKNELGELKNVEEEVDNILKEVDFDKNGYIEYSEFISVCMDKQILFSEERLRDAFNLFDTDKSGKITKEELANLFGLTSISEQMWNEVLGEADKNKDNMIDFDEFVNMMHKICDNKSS", "chain of UniProt P78362 (whole entry, looked up)": "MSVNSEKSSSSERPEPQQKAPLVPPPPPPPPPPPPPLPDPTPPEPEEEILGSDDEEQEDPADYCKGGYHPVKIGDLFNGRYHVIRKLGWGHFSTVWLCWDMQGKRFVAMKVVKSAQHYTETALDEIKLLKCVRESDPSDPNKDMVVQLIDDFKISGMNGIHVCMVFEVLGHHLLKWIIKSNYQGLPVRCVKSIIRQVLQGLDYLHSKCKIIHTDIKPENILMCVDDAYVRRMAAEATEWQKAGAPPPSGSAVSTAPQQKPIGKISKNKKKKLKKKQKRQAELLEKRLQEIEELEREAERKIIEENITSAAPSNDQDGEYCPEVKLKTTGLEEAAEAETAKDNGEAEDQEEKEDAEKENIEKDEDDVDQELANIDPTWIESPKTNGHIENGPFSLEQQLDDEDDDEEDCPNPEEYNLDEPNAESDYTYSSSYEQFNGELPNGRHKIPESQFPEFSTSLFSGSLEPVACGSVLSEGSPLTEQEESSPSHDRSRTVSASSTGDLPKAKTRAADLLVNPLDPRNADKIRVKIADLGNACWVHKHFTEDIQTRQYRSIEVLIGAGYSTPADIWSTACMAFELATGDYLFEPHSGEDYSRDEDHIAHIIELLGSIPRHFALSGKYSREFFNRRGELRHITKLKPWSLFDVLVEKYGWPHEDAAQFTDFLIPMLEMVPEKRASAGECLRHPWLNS", "chain of UniProt Q02779 (whole entry, looked up)": "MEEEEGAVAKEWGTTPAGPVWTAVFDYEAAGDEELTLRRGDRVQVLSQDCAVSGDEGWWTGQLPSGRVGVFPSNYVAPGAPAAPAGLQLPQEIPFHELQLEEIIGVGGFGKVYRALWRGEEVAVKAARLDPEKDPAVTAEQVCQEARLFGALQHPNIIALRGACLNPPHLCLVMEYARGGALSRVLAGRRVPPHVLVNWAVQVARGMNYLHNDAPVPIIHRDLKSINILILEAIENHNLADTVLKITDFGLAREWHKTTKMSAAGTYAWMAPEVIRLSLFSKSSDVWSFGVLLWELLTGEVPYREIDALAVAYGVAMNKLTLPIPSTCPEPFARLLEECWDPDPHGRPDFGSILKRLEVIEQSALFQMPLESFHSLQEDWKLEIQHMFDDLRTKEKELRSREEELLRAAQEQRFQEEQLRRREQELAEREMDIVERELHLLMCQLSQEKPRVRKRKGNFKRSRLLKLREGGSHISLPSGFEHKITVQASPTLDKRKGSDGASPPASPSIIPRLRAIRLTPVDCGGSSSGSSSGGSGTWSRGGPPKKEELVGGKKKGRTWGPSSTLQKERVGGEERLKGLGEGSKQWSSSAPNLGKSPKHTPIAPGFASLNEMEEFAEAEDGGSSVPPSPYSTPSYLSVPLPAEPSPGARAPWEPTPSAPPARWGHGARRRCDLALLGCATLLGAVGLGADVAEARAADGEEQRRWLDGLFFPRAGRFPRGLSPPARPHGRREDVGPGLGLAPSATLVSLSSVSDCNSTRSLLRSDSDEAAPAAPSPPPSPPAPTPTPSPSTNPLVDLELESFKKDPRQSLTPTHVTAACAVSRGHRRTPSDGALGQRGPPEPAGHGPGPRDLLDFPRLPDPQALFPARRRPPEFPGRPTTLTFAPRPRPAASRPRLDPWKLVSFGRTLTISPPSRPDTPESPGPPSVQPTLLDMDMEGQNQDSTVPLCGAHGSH", "chain of UniProt Q9BQI3 (whole entry, looked up)": "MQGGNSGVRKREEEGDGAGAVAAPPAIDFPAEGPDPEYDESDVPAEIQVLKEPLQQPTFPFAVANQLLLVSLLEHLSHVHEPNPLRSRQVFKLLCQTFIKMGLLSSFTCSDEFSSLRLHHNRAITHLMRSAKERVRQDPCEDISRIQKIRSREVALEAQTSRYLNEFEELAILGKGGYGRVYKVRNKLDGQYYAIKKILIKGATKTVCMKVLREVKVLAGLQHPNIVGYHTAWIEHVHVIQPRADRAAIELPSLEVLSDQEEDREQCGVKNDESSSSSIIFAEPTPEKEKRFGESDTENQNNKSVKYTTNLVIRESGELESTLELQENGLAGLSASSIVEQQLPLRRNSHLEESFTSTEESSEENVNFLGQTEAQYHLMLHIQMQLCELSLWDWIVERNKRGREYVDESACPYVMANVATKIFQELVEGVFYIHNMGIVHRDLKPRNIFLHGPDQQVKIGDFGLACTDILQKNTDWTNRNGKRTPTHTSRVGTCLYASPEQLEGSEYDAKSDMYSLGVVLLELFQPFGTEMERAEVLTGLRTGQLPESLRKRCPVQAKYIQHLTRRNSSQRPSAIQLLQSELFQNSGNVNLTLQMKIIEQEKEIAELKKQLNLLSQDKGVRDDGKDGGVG", "chain of UniProt P42681 (whole entry, looked up)": "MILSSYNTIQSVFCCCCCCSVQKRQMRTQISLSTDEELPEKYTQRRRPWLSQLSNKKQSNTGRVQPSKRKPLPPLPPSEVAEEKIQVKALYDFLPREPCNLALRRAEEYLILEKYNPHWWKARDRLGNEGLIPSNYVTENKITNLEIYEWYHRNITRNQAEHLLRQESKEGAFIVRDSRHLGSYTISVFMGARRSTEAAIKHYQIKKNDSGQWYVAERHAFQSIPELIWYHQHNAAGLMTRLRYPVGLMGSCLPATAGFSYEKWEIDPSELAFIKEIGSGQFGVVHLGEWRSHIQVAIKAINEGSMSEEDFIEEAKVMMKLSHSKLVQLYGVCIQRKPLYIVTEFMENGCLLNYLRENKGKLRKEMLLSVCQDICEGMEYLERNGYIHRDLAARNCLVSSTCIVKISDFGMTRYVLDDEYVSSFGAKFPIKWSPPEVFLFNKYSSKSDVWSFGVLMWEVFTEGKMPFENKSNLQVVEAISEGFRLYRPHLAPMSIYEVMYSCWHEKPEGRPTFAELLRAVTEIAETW"}
{"Compound": "Cc1cc([C@@H](C)Nc2ccccc2C(=O)O)c2nc(N3CCC(F)(F)CC3)c(C#N)c(=O)n2c1", "target": "Phosphatidylinositol 4,5-bisphosphate 3-kinase catalytic subunit gamma isoform (PIK3CG, Homo sapiens, UniProt P48736)", "assay": "binding, competition with immobilised ligand", "conditions": "10 µM", "quantity": "remaining binding", "value": "82%"}
{"Compound": "COCC(CNC(C)=O)c1cccc2ccc(OC)cc12 (centres unmarked)", "target": "MTNR1B", "assay": "β-arrestin recruitment, agonist", "test system": "MT2", "conditions": "90 min", "quantity": "Emax", "value": "81%"}
{"Compound": "CCCCC(=O)Nc1ccc(-c2ccc3ncn(CCC)c(=O)c3c2)cn1", "target": "Mitogen-activated protein kinase kinase kinase 10 (MAP3K10, Homo sapiens, UniProt Q02779)", "assay": "binding, competition with immobilised ligand", "conditions": "0.5 µM", "quantity": "remaining binding", "value": "100%"}
{"Compound": "Cc1ccc(NC(=O)c2ccc(C)c(C(F)(F)F)c2)cc1C#Cc1nn(C2CCC(O)CC2)c2ncnc(N)c12 (centres unmarked)", "target": "Mitogen-activated protein kinase 1 (Mapk1, Mus musculus, UniProt P63085)", "assay": "cell-free assay", "conditions": "10 µM", "quantity": "remaining signal", "value": "101%"}
{"Compound": "CC[C@H](C)[C@H](NC(=O)[C@H](CCC(N)=O)NC(=O)[C@@H](NC(=O)[C@H](CCSC)NC(=O)[C@H](CCCCN)NC(=O)[C@H](CO)NC(=O)[C@@H](NC(=O)[C@H](CCSC)NC(=O)[C@H](CC(C)C)NC(=O)[C@H](CC(N)=O)NC(=O)[C@@H](NC(=O)[C@@H](NC(=O)[C@H](CO)NC(=O)[C@H](CC(C)C)NC(=O)[C@H](C)NC(=O)[C@H](CCCNC(=N)N)NC(=O)[C@H](CCC(=O)O)NC(=O)[C@H](Cc1ccc(O)cc1)NC(=O)[C@H](Cc1ccccc1)NC(=O)[C@H](C)NC(=O)[C@H](CC(N)=O)NC(=O)[C@@H](N)CCCCN)[C@@H](C)CC)[C@@H](C)CC)[C@@H](C)O)C(C)C)C(=O)N[C@@H](CC(N)=O)C(=O)N[C@H](C(=O)O)C(C)C", "target": "Cyclin-dependent kinase 5, with p35 (CDK5, Homo sapiens, UniProt Q00535)", "assay": "enzyme activity, inhibitor, radiometric", "conditions": "500 µM", "quantity": "inhibition", "value": "84%"}
{"Compound": "FC(F)(F)Oc1cccc(-c2cnc3ccc(-c4ccncc4)nn23)c1", "target": "Dual specificity tyrosine-phosphorylation-regulated kinase 3 (DYRK3, Homo sapiens, UniProt O43781)", "assay": "enzyme activity, inhibitor, radiometric", "conditions": "1 µM", "quantity": "activity vs control", "value": "48%"}
{"Compound": "CCC(=O)NC1Cc2ccccc2C(c2ccccc2)C1 (centres unmarked)", "target": "MTNR1B", "assay": "β-arrestin recruitment, agonist", "test system": "MT2", "conditions": "90 min", "quantity": "Emax", "value": "68%"}
{"Compound": "F[C@@H]1CCN(c2nccc(-c3cnn4ncccc34)n2)C1", "target": "Calcium-dependent protein kinase 1 (CDPK1, Plasmodium falciparum, UniProt P62344)", "assay": "binding", "conditions": "1 µM", "quantity": "remaining binding", "value": "100%"}
{"Compound": "C=CC(=O)N1CCC(COCC(=O)N2CCN(c3nc(-c4cnc(N)nc4C(F)F)nc(N4CCOC[C@@H]4C)n3)CC2)CC1", "target": "SRSF protein kinase 2 (SRPK2, Homo sapiens, UniProt P78362)", "assay": "binding, competition with immobilised ligand", "conditions": "1 µM", "quantity": "remaining binding", "value": "88%"}
{"Compound": "COc1cc(CNC(=O)c2ccc(Br)cc2)cc(Br)c1OC", "target": "Replicase polyprotein 1ab, papain-like protease (rep, Porcine epidemic diarrhea virus, UniProt P0C6Y4)", "assay": "enzyme activity, inhibitor, FRET", "conditions": "10 µM", "quantity": "inhibition", "value": "80.2%"}
{"Compound": "NC/C(=C\\F)COc1cccc(Cn2c(=S)[nH]c(=O)c3[nH]cnc32)c1", "target": "Diamine oxidase [copper-containing] (AOC1, Homo sapiens, UniProt P19801)", "assay": "enzyme activity, inhibitor", "conditions": "4.1 nM", "quantity": "inhibition", "value": "1.86%"}
{"Compound": "Nc1ncnc2occ(-c3ccc(NC(=O)Nc4cc(C(F)(F)F)ccc4F)cc3)c12", "target": "Eukaryotic translation initiation factor 2-alpha kinase 1 (EIF2AK1, Homo sapiens, UniProt Q9BQI3)", "assay": "cell-free assay, inhibitor", "conditions": "20 µM", "quantity": "remaining signal", "value": "1.3%"}
{"Compound": "COc1cc(-c2cncc3c2CN(C)Cc2cc(N4CCNCC4)ccc2-3)cc(OC)c1OC", "target": "Tyrosine-protein kinase TXK (TXK, Homo sapiens, UniProt P42681)", "assay": "enzyme activity, inhibitor", "conditions": "1 µM", "quantity": "remaining activity", "value": "107%"}
{"Compound": "COc1cc2c(CCNC(C)=O)c(I)[nH]c2cc1[N+](=O)[O-]", "target": "MTNR1B", "assay": "cAMP, agonist, TR-FRET", "test system": "CHO-K1", "conditions": "20 min", "quantity": "Emax", "value": "92%"}
{"Compound": "CNc1ncc2c(/C=C/C(=O)N3CCC(OC)CC3)nn(Cc3cccc(C(F)(F)F)c3)c2n1", "target": "Ribosomal protein S6 kinase beta-2 (RPS6KB2, Homo sapiens, UniProt Q9UBS0)", "assay": "enzyme activity, inhibitor, radiometric", "conditions": "1 µM", "quantity": "remaining activity", "value": "95%"}
{"Compound": "CC(=O)/C=C/C=C(C)/C=C/C1=C(C)CC(O)CC1(C)C (stereo in doubt)", "target": "D14 (Oryza sativa, UniProt Q10QA5)", "assay": "thermal stability, DSF", "conditions": "250 µM", "quantity": "ΔTm", "value": "6.4 °C"}
{"Compound": "C1=C/COCc2cc(ccc2OCCN2CCCC2)Nc2nccc(n2)-c2cccc(c2)COC/1", "target": "Mitogen-activated protein kinase kinase kinase kinase 2 (MAP4K2, Homo sapiens, UniProt Q12851)", "assay": "binding", "conditions": "0.1 µM", "quantity": "remaining binding", "value": "20%"}
